Results collected from several papers.
Lines come from different studies, so protocols differ. Numbers after ± are the reported error.

| Compound | assay | test system | conditions | scale | quantity | result |
| --- | --- | --- | --- | --- | --- | --- |
| Cc1[nH]c(/C=C2\C(=O)Nc3ccccc32)c(C)c1CCC(=O)O | HPLC-UV | human, plasma | oral, 400 mg/m^2 twice daily, day 28 | – | AUC | 54800 ng·h/mL |
| CO[C@H]1C[C@@H]2CC[C@@H](C)[C@@](O)(O2)C(=O)C(=O)N2CCCC[C@H]2C(=O)O[C@H]([C@H](C)C[C@@H]2CC[C@@H](O)[C@H](OC)C2)CC(=O)[C@H](C)/C=C(\C)[C@@H](O)[C@@H](OC)C(=O)[C@H](C)C[C@H](C)/C=C/C=C/C=C/1C | – | human, whole blood | oral, 30 mg, mean | – | AUC | 2710 ng·h/mL |
| CCCCCCCCCCCCCCC[C@H](O)[C@@H](N)CO | – | human, phase I, plasma | intravenous, 360 mg/m^2, day 1, monotherapy | – | AUC | 76 µM·h |
| CCS(=O)(=O)N1CC(CC#N)(n2cc(-c3ncnc4[nH]ccc34)cn2)C1 | – | healthy Chinese humans | oral, 2 to 10 mg once daily, 7 days | – | AUC accumulation | ≤ 10% |
| CC(C)c1nc(N(C)S(C)(=O)=O)nc(-c2ccc(F)cc2)c1/C=C/[C@@H](O)C[C@@H](O)CC(=O)O | – | human, plasma | oral, dose not given, together with: finerenone 40 mg steady state simultaneous | relative to: compound alone | AUC increase | 14% |
| Cc1nc(-c2ccc(OCC(C)C)c(C#N)c2)sc1C(=O)O | – | human male, plasma | oral, 80 mg, together with: verinurad 2.5 mg | relative to: with over without verinurad | AUC ratio | 96.2% |
| CCOc1ccc(Cc2cc([C@]34OC[C@](CO)(O3)[C@@H](O)[C@H](O)[C@H]4O)ccc2Cl)cc1 | – | human, type 2 diabetes, severe renal impairment, plasma | oral, 15 mg | – | AUC | 1900 ng·h/mL |
| COc1cc(Nc2ncc3c(n2)-c2ccc(Cl)cc2C(c2c(F)cccc2OC)=NC3)ccc1C(=O)O | – | human, plasma | oral, 50 mg twice daily, day 7, steady state geometric mean | – | AUC dosing interval | 20.9 µM·h |
| C[C@@H]1CCN(C(=O)CC#N)C[C@@H]1N(C)c1ncnc2[nH]ccc12 | – | human, ulcerative colitis patients, plasma | oral, 10 mg twice daily | relative to: rheumatoid and psoriatic arthritis patients | AUC difference | ≤ 20% |
| O=c1[nH]cc(F)c(=O)[nH]1 | – | human, plasma | intravenous, 2400 mg/m^2 maintenance, cycle 1 without vorinostat, once-daily cohort | – | AUC | 29900 ± 6660 ng·h/mL |
| CCOc1ccc(Cc2cc([C@]34OC[C@](CO)(O3)[C@@H](O)[C@H](O)[C@H]4O)ccc2Cl)cc1 | pooled meta-analysis | human, UGT1A9 -2152 heterozygous, plasma | oral, dose not given | relative to: wild type | AUC dose-proportionality slope fold change | 0.988 |
| COc1cc(Nc2ncc3c(n2)-c2ccc(Cl)cc2C(c2c(F)cccc2OC)=NC3)ccc1C(=O)O | – | human, phase I | oral, 30 mg, 0 to 8 h, estimated by accumulation | – | AUC steady state | 7500 ± 1730 ng·h/mL |

A few entries again:
| Compound | assay | test system | conditions | scale | quantity | result |
| --- | --- | --- | --- | --- | --- | --- |
| CCOc1ccc(Cc2cc([C@]34OC[C@](CO)(O3)[C@@H](O)[C@H](O)[C@H]4O)ccc2Cl)cc1 | pooled meta-analysis | human, UGT1A9 -2152 heterozygous, plasma | oral, dose not given | relative to: wild type | AUC dose-proportionality slope fold change | 0.988 |
